Experimental data from different studies.
A part holds a random share of what one study measured. Substitutions count along the parent as printed.

Series 1
Target: ABI1, truncated, D143A, DHFR fusion (Arabidopsis thaliana)
Technique: DHFR PCA, deep sequencing
Matrix: yeast
Setting: methotrexate growth selection, single substitutions
With: (+)-ABA 0.0091 µM
Baseline: wild-type fitted maximum
Direction: higher = stronger binding
Measurement: relative binding score
Parent: PYL1, truncated, DHFR fusion (Arabidopsis thaliana); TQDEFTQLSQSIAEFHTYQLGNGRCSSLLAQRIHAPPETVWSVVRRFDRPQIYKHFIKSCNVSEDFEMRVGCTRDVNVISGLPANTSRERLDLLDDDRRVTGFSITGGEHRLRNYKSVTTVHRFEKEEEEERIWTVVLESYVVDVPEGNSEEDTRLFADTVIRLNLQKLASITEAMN; partner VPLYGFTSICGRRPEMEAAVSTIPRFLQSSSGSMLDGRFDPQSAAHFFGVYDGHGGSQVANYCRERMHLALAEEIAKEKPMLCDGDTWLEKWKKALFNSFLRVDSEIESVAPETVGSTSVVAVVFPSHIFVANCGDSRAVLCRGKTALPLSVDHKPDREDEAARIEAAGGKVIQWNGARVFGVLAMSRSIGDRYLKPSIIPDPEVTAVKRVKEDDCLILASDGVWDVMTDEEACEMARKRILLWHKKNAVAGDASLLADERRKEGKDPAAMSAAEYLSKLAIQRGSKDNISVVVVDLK
Y115D: 6.09%
L82G: 47.5%
T154R: -2.11%
T17N: 0.883%
G81T: 35.4%
M68Y: -6.83%
E129H: 17.4%
Q31Y: -5.13%
P146D: -1.56%
I133L: 27%
T17S: 14.4%
F56A: 1.67%
V145I: 45%
V62E: 0.384%
K58D: 1.08%
T135F: -3.05%

Series 2
Target: RNA binding protein fox-1 homolog 2, RRM domain, GST-SBP tag (RBFOX2, Homo sapiens, UniProt O43251-10, residues 100-194)
Technique: RNA Bind-n-Seq
Molecule type: RNA
Matrix: in vitro
Concentration: 365 nM
Setting: natural RNA segment, single round, ends assumed
Baseline: no-protein control
Direction: higher = stronger binding
Measurement: RBNS enrichment (R)
Constant ends, left off below: GGGAGUUCUACAGUCCGACGAUC … UGGAAUUCUCGGGUGCCAA
Construct (chain): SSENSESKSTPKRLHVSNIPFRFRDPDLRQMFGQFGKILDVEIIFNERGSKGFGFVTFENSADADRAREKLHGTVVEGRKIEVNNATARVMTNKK
CCUCUGGCCCCUUACAUGCUGCCAGAGGAGAAGGUGUUUGUUUGAGAUUCAUUCCACUUGAAGUGUCUCCUGGGAUCCCCACAGCUGCGUAUGGCUGGGAAAUGGACUUA: 0.278
AAUACAGGGUUUUGAAAACAUGAAGGAAAUGAGAGUUUCCCCCCAUUCCUGAUUUAGCUAUUAUUUCUUUGUCUGAAGUCUGCCAUACUCACUUUGGGCCAGAGAGAGGU: 0.344
UGCCUGAAGAGGCCAUAUGCUGGCAUUUUGCACAACUUUUUGGUUGUUUAGAUCCUACAGAUGACCUCUGCUACAAUAAGUACGAUGUGACUUAGUAACUGCAUAGCAGU: 0.284
UGGACAAAGAACUUGUGGUCUUUUAAAACUGGGACUGAUACUUUUUUGAGAGAGUAUCGUGUCGAAAGUGUGAUGUUCUACCACUUUACCAAUAACUAAUUUUAAAUACA: 0.62
UCCUCACUCUUUGUGGAAGGGAAAGCUCAAAGGGACUCUCUCUCUCUCUCUCUUUUUUUUUUUUUUUGAGUAGUACCCUUGCCCUCUUCAUGGCCACUUCAAAGUGAAGC: 1.16
AGACCAAGAACCAUGAUCAUUGCCUGCUGAAUCGGCCAGGGCCUGGCCACUCUGUGAAUACAUGAUCUUGCAAUGUUGGGUUAUUCCAGCCAAAGACAUUUCAAGUGCCU: 0.488
GGAGCCUGUCAGGUUUUGAGAGCUUGAUUUUAUGGUGGGUUUUGGAUUUAGUUUCCUUUUUCCUUUUUUAAAUAUUGGUUUUAAAAAGGGAGCCUGAUGCCCCCAAUUGG: 0.351
GCUGGCGACAACCCUCCUUUCUGCCUUUGACACUCAUGUGCUGGGACUACAGGCACACACCAGUACCACUCAGUCUUGUGCAGUGCUGGGGAUGAGCCCAGGGUUUCAUG: 0.404
GUGACUCUGGUUGGCAAGGGUGAGCUGUGCUUGGCCAGGAAGGUGGCAUUAAAGGCUGUGCUCACGUGACAAGAGUGCCUUUGAGCUGUAAUGACCAGUGUUUAGAGUCC: 0.881
AACCUGGGUCCGGCCUUCCUCAGCCCCUGGCCCCUCCAAGGUACCUAUAAGGGACAAGAGAAGGCCUGCCCAGCAUAGCACAAACAAGGAAAUAAAUAGGUGUUGGCAGG: 0.307
UAAUAUAUAUUCAGAAUAAUAAACUCAAGCUGGAGAAAUGAGUCCUGAUAGACUGAAAAUUGAGCAAAUGGAAGAAGAUACAGUAUUGUUUAGAUCAGAAUCAUUAAAAA: 0.852
UCCCCGGGAUGGACCAGGGGCUGCAGGGUGCCUGCAUGGGGGAACGCCGGAGAAUUACCAUCCCCCCGCACCUCGCCUAUGGGGAGAAUGGAACUGGUAGGGGCGUUCCC: 2.01

Series 3
Target: TATA-box-binding protein 1 (TBP1, Arabidopsis thaliana, UniProt P28147, residues 1-200, full length assumed)
Technique: protein-binding microarray
Molecule type: double-stranded DNA, one strand shown
Matrix: in vitro
Concentration: not given
Setting: k-mer, scored over probes, only values ≥0.25
Direction: higher = stronger binding
Measurement: E-score
Construct (chain): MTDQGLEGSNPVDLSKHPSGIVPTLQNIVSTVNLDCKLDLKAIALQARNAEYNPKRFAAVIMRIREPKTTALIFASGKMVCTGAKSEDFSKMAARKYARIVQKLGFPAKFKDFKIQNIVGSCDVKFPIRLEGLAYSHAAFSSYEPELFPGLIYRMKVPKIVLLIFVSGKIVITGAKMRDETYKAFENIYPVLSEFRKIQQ
ATTTTTA: 0.402
ATTTAAG: 0.451
ATCTTTA: 0.284
AAAGTAT: 0.298
ATAGATA: 0.276
AACAGTA: 0.262
AAATACC: 0.299
CGGTATA: 0.261
ATAATTA: 0.373
ATATTAG: 0.407
TTAAGAA: 0.284
GAATATA: 0.443
CAAATAA: 0.26
ATAACTG: 0.264
TATTAGA: 0.31
AAATAGT: 0.304
ATAACTA: 0.321
AATATAC: 0.413
AACTATT: 0.279
TGTTTAA: 0.309
TATTACA: 0.263
CAGTATA: 0.329
ACTATAA: 0.394
CCAATTA: 0.253
AAATTAT: 0.377

Series 4
Target: Centromere-binding protein 1, full length, His-tagged (CBF1, Saccharomyces cerevisiae, UniProt P17106, residues 1-351)
Chain of UniProt P17106 (whole entry, looked up): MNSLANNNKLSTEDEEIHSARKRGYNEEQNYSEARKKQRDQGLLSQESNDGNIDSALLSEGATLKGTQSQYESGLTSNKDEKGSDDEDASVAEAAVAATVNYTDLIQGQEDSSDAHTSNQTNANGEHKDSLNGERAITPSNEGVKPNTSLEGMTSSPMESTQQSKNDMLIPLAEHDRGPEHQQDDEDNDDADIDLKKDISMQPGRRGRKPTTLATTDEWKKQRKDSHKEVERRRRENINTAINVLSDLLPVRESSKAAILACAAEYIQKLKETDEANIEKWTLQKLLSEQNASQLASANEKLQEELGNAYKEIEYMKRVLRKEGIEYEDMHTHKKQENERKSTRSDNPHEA
Technique: competition protein-binding microarray
Molecule type: double-stranded DNA, one strand shown
Matrix: in vitro
Concentration: 2 µM
Setting: whole 60-bp probe, lowest competitor level
With: Pho4 competitor, 0.05 µM
Direction: higher = stronger binding
Measurement: fluorescence intensity
Constant ends, left off below: … GTCTTGATTCGCTTGACGCTGCTG
CATACCCAACCTTGTCACGTGGGTGAAGATATTTGT: 4130 a.u.
CATACCCAACCTTGGGATGTGGGTGAAGATATTTGT: 67.3 a.u.
GCCTACCGGTCCTCGCACGCGGTCTCGCTTTTCTCA: 54.7 a.u.
AATTCCACACCGCACCATGTGCCCATCAAGTCCAAC: 128 a.u.
TGCCTTTTTCATTGTCATGTGGGTTTTGGAGAGCTT: 217 a.u.
CGTTTCATTCAAGAGGGCGTGCATCCGCGGATCATC: 86.9 a.u.
TGCGAAATTTGAGTACACGTGAGTCAGTCAGTCGGC: 2170 a.u.
TTGTCTCAACGCCATCACGTGACTCGCACTGCCTGC: 17200 a.u.
CTAACGAAGGTTTGCCTAGTGGGTGACAAGCCAAGT: 75.5 a.u.
CGACTTCAGCCAAATAACGTGGAGGCTCTGGAACAA: 71.9 a.u.
CTAACGAAGGTTTGAGGCGTGGGTGACAAGCCAAGT: 64.5 a.u.
CTAACGAAGGTTTGTACAGTGGGTGACAAGCCAAGT: 79.2 a.u.
CAAGAAATCTTGTTCCTCGTGGCCGAATGGTTACGG: 93.6 a.u.
AGAGTCATCGGCTTCACCGTGAGGTTTTTTCAAGTG: 69.9 a.u.
CCTGGACGCATTCAACACGCTGCTCGAGCGGCTGCT: 67.1 a.u.
TTAAAAATAGACTATTCGACAACTTTCCTACTGCTA: 77.8 a.u.
AAATTACTAAGTTGTCACTGTACTTACCCCGTATGA: 84.1 a.u.
TGCCGCATTTCTTCCCGCGTGGCAACTTCTGCGTAC: 79.6 a.u.
ATGGAGTTAATTCACCACGTTACTAAATAAGAGATT: 240 a.u.
AGTCGTTTGAGGGCAAACGTGTGAAAATCTCCGGAA: 85.8 a.u.
GAATAGAGGTGGTGAGTCGTGCGGAACGACGAACCT: 59.1 a.u.
GTAGTTATGGAAGTGCCCGTGGACCATGCCTTCTTT: 66 a.u.
CTTTCCCGATCTTGCAGTGTGGGTGTAGCACATTTG: 69.2 a.u.
ATAGTGGGCAGACTCCACGTGCAAATGACAGCCAGG: 761 a.u.
CACCGTCTTCCGCCGCACGTGGATTCAGCGCGATGC: 611 a.u.

Series 5
Target: CCND2, cyclin fold, Cln2 fusion (human)
Technique: yeast growth competition, sequencing
Matrix: yeast
Setting: strong parent motif
Baseline: not given
Direction: higher = stronger binding
Measurement: normalised enrichment score
Parent: INSM1 docking peptide (human); PKAIRKLHFEDEV
PKAIRKLHFEDVV [E12V]: 1.73
PKEIRKLHFEDEV [A3E]: 0.555
PKAIRKLHTEDEV [F9T]: 0.127
PKAIRKLHFEDIV [E12I]: 1.54
PKAIRKLHFEDNV [E12N]: 2.03
PKRIRKLHFEDEV [A3R]: 0.385
PKAIRKLHFEEEV [D11E]: 2.37
PKAHRKLHFEDEV [I4H]: 0.0664
PKAIRKLHFESEV [D11S]: 1.64
PKAIRKLHFEDHV [E12H]: 2.17
PKAARKLHFEDEV [I4A]: 3.06
PKAIRKLHFEKEV [D11K]: 1.32
PKAIRKLHFLDEV [E10L]: 1.08
PMAIRKLHFEDEV [K2M]: 1.97
PKAIRTLHFEDEV [K6T]: 0.64
PKAIRKLHFETEV [D11T]: 0.995

Some of these lines once more (series 3):
ATTTAAG: 0.451
AAATACC: 0.299
TGTTTAA: 0.309
ATAATTA: 0.373
ATATTAG: 0.407
AAATAGT: 0.304
ACTATAA: 0.394
ATAACTA: 0.321
CCAATTA: 0.253
CGGTATA: 0.261
CAGTATA: 0.329
AACTATT: 0.279
TATTAGA: 0.31
